Published values collected from several papers.
Numbered parts are unrelated; each lists some results of a single study. Substitutions count along the parent as printed.

Series 1
Target: RNA binding protein fox-1 homolog 2, RRM domain, GST-SBP tag (RBFOX2, Homo sapiens, UniProt O43251-10, residues 100-194)
Method: RNA Bind-n-Seq
Form: RNA
Medium: in vitro
Tested at: 365 nM
Setting: natural RNA segment, single round, ends assumed
Baseline: no-protein control
Reading: higher = stronger binding
Quantity: RBNS enrichment (R)
All sequences stand within: GGGAGUUCUACAGUCCGACGAUC … UGGAAUUCUCGGGUGCCAA
Target sequence (chain): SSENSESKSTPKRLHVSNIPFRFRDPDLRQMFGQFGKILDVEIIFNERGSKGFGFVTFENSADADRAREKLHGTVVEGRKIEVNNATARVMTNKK
GAAGACUUGAUUGAUAGCAUGGUUUCAAGAGAGAAGUGGGGCCACACACAAAAUCACCAAUGAUUCCGUUACCUUCUGGAGUAAGGACCCCACCCUCUCUGCAGCAAGGG: 4.67
CCUCCAAGGGUAGGUGUCUCAUUUGUUCUGGCCCCUUGGAUUUAAAAAUAAAAUUAAUUUCCUGUUGAUAGUGGGCACCUCGGUUUCUUCCUCACUGCUCUGUUUUCCCC: 2.37
CCUGGUCUCAGACCAUCGUCUCUGCACUGCGAAGGCAUUUGGUAGCCUCGCCACUGAGAUACUAACUAGACCUAGACUAGGAGCUUUAUCAGGUUCUAGGAGGUCCUUUA: 0.221
GAACCUUUCCCCUGCUAUCUCCCUUCCUGCUUCGAAGGACUCAUUCUUUCCUCCCACUUCCACCCCAACAUAGAGUAGUAUUUGCUUUUUAGUCCAUUUUGUUUUCAAUA: 1.12
UCAAAGUUGGAUGACCUCAUUACUAAUAUUUGUUGUAAAAGUGAAACUUGUUUGCCAACCAAUAAACAACUGAUUGAGAUUUAGAAGAUAUUGUAUUGAUGUAUGUACUA: 0.399
AGACUAAGGGAUGAGGACAUCUCUUUAUAAAAGGCCCCUAAGUAAUGGAUAAACAGAAACACUUAGAGGUGAGAAGGUCUGUCUUCAAGAUCCAAGGUAAGAUUGCCUUC: 0.294
GCCAAGGGUGGGGUUUCACCUGCGAACAUCAGACUGACUUGCUGGCGUCAAGAGCAGUUGACUCACUGAUGAAGGCCCUGGUGAGGAGAAAGCACUCUGUUCUUCGCCUA: 0.452

Series 2
Target: Interferon regulatory factor 5, full length, phosphomimetic (IRF5, Homo sapiens, UniProt Q13568-2, residues 1-514, K96S/S451D/S453D/S456D/S462D)
Method: protein-binding microarray
Form: double-stranded DNA, one strand shown
Medium: in vitro
Tested at: 250 nM
Setting: 60-bp whole probe
With: salmon DNA 0.4 mg/ml
Baseline: random background probes
Reading: higher = stronger binding
Quantity: log fluorescence
All sequences stand within: GCCTAGCAC … GTCTTGATTCGCTTGACGCTGCTG
TTAGGCCTCGGACTGGGTTAGTGCTAG: -0.538 z-score
TTAGGTATCGGTATCGATTAGTGCTAG: 9.5 z-score
TCACCTTTGCTTTCCTGACTGTGCTAG: 0.484 z-score
GACGGACTGGACCATCGGGACGTGCTA: -0.522 z-score
TCATATTTAAGGCATCTGACTGTGCTA: 0.153 z-score
TACGATCTCAGTATCGAGACGTGCTAG: 1.94 z-score
GATGGTTTCCTACTGCTGACGTGCTAG: 0.477 z-score
TCAGGTATCGACACTGGGTTAGTGCTA: 2.07 z-score
GACGGACTGGGTTTCGGGAGGTGCTAG: 2.03 z-score
TTAGATATCAGAATGGATTAGTGCTAG: 0.318 z-score
GACGAACTGAGAATGGAGACGTGCTAG: -0.333 z-score
TCATGTCTGTGTCACAGACTGTGCTAG: -0.14 z-score
TCATCTCGGAGATCTCGAACTGTGCTA: 0.206 z-score
TTAGCTTTCAGTATCGATTAGTGCTAG: 9.75 z-score
TGGAATTTCCCTCTCCCCTCGTGCTAG: 0.492 z-score
TTAGATATCGGGTTTCGATCAGTGCTA: 7.22 z-score
TTAGATTTCGGGAATGGATTAGTGCTA: 3.29 z-score
GACGGTTTCGGACTTGGGACGTGCTAG: 3.68 z-score
CAAGTTTCTCCTTTGTAAATGTGCTAG: 2.57 z-score
GACGAACTTAGACTGGAGACGTGCTAG: -0.503 z-score
TTATATATCGGGACTGGATTAGTGCTA: 1.47 z-score
TTCGGTATCGGGTTTCGGTTAGTGCTA: 8.89 z-score
TTAGGTCTCGGTTGCGGTTAGTGCTAG: 1.16 z-score
TTAGGTTTACTTTCCCTTTAGTGCTAG: 2.74 z-score

Series 3
Target: Sal-like protein 4, full length isoform B (SALL4, Homo sapiens, UniProt Q9UJQ4-2, residues 1-616)
Method: universal PBM
Form: double-stranded DNA, one strand shown
Medium: in vitro
Tested at: not given
Setting: 8-mer, flanks averaged, mean of replicates
Reading: higher = stronger binding
Quantity: E-score
AGGATACA: 0.0761
TGCTCAAA: 0.0243
CTGGGTCA: -0.207
TGCAAACA: 0.178
AGACACAG: -0.00315
AGGATGTA: 0.154
GAATTCTA: 0.137
GACTTCTA: -0.0932
ATTCTCGA: 0.022
CTAGCAAC: 0.108
TCGAGGCA: -0.0367
TGATCGAA: -0.0196
ACCCCCAT: -0.0568
AGATATCT: 0.181
CCCCAACC: -0.288
CCAGGGGG: -0.266

Series 4
Target: Transcription factor Sp1 (SP1, Homo sapiens, UniProt P08047, residues 1-785, full length assumed)
Sequence of UniProt P08047 (whole entry, looked up): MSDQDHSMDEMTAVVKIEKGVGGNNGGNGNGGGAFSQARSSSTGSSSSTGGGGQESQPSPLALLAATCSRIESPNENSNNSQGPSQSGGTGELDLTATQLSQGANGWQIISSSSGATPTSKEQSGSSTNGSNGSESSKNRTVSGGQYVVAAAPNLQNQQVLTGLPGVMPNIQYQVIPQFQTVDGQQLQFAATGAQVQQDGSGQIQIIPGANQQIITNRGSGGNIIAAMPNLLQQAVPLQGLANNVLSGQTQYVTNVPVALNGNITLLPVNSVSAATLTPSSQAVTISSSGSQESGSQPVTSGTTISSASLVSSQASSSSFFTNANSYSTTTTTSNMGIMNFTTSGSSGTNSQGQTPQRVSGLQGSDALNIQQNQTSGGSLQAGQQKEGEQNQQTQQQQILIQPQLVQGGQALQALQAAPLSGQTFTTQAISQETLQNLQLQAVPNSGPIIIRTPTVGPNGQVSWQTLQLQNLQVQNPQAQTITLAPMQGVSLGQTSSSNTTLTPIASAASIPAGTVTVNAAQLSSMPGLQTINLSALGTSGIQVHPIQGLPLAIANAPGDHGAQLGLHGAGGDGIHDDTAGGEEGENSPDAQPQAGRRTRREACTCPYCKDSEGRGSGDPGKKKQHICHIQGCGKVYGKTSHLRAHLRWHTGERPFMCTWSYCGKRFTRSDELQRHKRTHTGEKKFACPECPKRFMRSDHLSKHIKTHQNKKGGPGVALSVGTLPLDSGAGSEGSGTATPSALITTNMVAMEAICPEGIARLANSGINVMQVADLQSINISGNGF
Method: protein-binding microarray
Form: double-stranded DNA, one strand shown
Medium: in vitro
Tested at: not given
Setting: k-mer, scored over probes, only values ≥0.25
Reading: higher = stronger binding
Quantity: E-score
CGATCCCC: 0.258
CCCACCTA: 0.359
ATAACGTG: 0.293
ATACGCCC: 0.286
AGTTACAG: 0.264
ATGGGGAG: 0.351
GGGGTGGA: 0.422
CACAACAC: 0.332
CAACCCCA: 0.32
GTGTACAA: 0.27
ACGTCCCC: 0.3
ACAATACC: 0.311
ACTCCCCG: 0.253
CAAATGGG: 0.254

Series 5
Target: ABI1, truncated, D143A, DHFR fusion (Arabidopsis thaliana)
Method: DHFR PCA, deep sequencing
Medium: yeast
Setting: methotrexate growth selection, single substitutions
With: (+)-ABA 710 µM
Baseline: wild-type fitted maximum
Reading: higher = stronger binding
Quantity: relative binding score
Starting sequence: PYL1, truncated, DHFR fusion (Arabidopsis thaliana); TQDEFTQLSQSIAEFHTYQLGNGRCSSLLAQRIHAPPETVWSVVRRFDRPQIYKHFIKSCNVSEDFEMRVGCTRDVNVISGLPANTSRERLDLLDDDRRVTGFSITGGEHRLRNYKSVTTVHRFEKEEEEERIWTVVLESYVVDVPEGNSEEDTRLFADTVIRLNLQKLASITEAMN; partner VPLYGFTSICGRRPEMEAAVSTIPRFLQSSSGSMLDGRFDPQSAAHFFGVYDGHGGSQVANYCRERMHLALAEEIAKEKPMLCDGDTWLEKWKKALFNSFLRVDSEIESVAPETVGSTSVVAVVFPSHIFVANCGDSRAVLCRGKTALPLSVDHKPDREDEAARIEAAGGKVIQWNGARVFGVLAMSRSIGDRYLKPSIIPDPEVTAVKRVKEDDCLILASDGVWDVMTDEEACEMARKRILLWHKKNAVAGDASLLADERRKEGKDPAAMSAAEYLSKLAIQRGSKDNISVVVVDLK
V100R: 90.5%
L94K: 51.4%
T173R: 25.8%
K126W: 96.7%
V62L: 101%
R49L: 87.2%
E128N: 108%
I162A: 59.3%
T39W: 97.6%
L28T: 91.3%
E64M: 97.8%
E67P: 98.4%
V121E: 6.25%
T17I: 87.3%
L20P: 102%

Series 6
Target: UBE2J2 UBC core domain (UniProt Q8N2K1)
Method: yeast two-hybrid
Medium: yeast
Setting: mostly zero background
Baseline: not given
Reading: higher = stronger interaction
Quantity: lacZ reporter activity
B1: RNF166 RING domain (UniProt Q96A37); chain GDSGLEAQYTCPICLEVYHRPVAIGSCGHTFCGECLQPCLQVPSPLCPLCRLPFDPKKVDK
B2: MKRN2 RING domain (UniProt Q9H000); chain FAFQASQDKVCSICMEVILEKASASERRFGILSNCNHTYCLSCIRQWRCAKQFENPIIKSCPECRVISEFVIPSV
B3: RNF122 RING domain (UniProt Q9H9V4); chain AKKLQLYGQTCAVCLEDFKGKDELGVLPCQHAFHRKCLVKWLEVRCVCPMCNKPIASPSEAT
B4: TRIM60 RING domain (UniProt Q495X7); chain ALVNLQEESSCPICLEYLKDPVTINCGHNFCRSCLSVSWKDLDDTFPCPVCRFCFPYKSFRR
B5: TRIM22 RING domain (UniProt Q8IYM9); chain VKVDIEKEVTCPICLELLTEPLSLDCGHSFCQACITAKIKESVIISRGESSCPVCQTRFQPGNLRP
B6: RNF183 RING domain (UniProt Q96D59); chain EQQGRELEAECPVCWNPFNNTFHTPKMLDCCHSFCVECLAHLSLVTPARRRLLCPLCRQPTVLASGQP
B7: MYCBP2 RING domain (UniProt O75592); chain TSLKQDADDMCMICFTEALSAAPAIQLDCSHIFHLQCCRRVLENRWLGPRITFGFISCPICKNKINHIVLKD
B8: TRIM37 RING domain (UniProt O94972); chain SVESIAEVFRCFICMEKLRDARLCPHCSKLCCFSCIRRWLTEQRAQCPHCRAPLQLRELVN
Residues (chain): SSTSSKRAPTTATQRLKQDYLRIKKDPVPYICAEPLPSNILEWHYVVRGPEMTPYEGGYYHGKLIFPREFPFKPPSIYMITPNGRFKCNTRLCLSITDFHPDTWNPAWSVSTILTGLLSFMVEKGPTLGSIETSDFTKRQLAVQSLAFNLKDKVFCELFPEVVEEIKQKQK
B1 (RNF166 RING domain): 0
B2 (MKRN2 RING domain): 0
B3 (RNF122 RING domain): 0
B4 (TRIM60 RING domain): 0
B5 (TRIM22 RING domain): 0
B6 (RNF183 RING domain): 0
B7 (MYCBP2 RING domain): 0
FVKTVEDKYKCEKCHLVLCSPKQTECGHRFCESCMAALLSSSSPKCTACQESIVKDKVF (TRAF3 RING domain (UniProt Q13114)): 0
B8 (TRIM37 RING domain): 0
